Assay results pooled from the literature.
Compare with care: the assays were run in different laboratories. ± gives the spread as reported.

Substance	test	test system	setting	IC50
Nc1nc(=O)c2nc(CNc3ccc(C(=O)N[C@@H](CCC(=O)O)C(=O)O)cc3)cnc2[nH]1	cap-dependent translation	rabbit reticulocyte lysate	1 h preincubation, with: capped luciferase mRNA	> 500 µM
CC12CCC(CC1=O)C2(C)C (centres unmarked)	DPPH radical scavenging		15 min	> 2630 µM
CC(C=CC1(C)C(C)CCC(=O)C1C)=CCc1c(O)c(C=O)c(C)c(Cl)c1OCC(=O)O (centres unmarked)	succinate-dependent oxygen uptake, inhibitor	rat liver mitochondria	with: succinate 15 mM	4.1 µM
COC(=O)C[C@](O)(CCCC(C)(C)O)C(=O)O[C@@H]1C(OC)=C[C@]23CCCN2CCc2cc4c(cc2[C@H]13)OCO4	translation, inhibitor, measured: firefly luciferase reporter	Krebs-2 cell lysate		~0.5 µM
Cc1c(CN2CCN(C(=O)[C@H](C)O)CC2)sc2c(N3CCOCC3)nc(-c3cnc(N)nc3)nc12	measured: pAkt	patients with advanced solid tumours, platelet-rich plasma	typical patient, PK-PD model	9.32 ng/mL
NC[C@@H]1O[C@H](O[C@H]2[C@@H](O)[C@H](O[C@@H]3[C@@H](O)[C@H](N)C[C@H](N)[C@H]3O[C@H]3O[C@H](CO)[C@@H](O)[C@H](O)[C@H]3N)O[C@@H]2CO)[C@H](N)[C@@H](O)[C@@H]1O	[14C]-phenylalanine incorporation, inhibitor, (UUU)12-directed cell-free translation	Mycolicibacterium smegmatis wild-type 70S ribosomes	60 min, 37 °C	0.9 µM
NS(=O)(=O)c1ccc(NC(=O)/C=C\c2ccc(O)c(O)c2)cc1	DPPH radical scavenging	ethanol	30 min	50.3 µM
CCN[C@@H]1C[C@H](N)[C@@H](O[C@H]2OC(CN)=CC[C@H]2N)[C@H](O)[C@H]1O[C@H]1OC[C@](C)(O)[C@H](NC)[C@H]1O	[14C]-phenylalanine incorporation, inhibitor, (UUU)12-directed cell-free translation	Mycolicibacterium smegmatis wild-type 70S ribosomes	60 min, 37 °C	0.7 µM
COc1cnc(NS(=O)(=O)c2ccc(NC(=O)/C=C\c3ccc(O)c(O)c3)cc2)nc1	DPPH radical scavenging	ethanol	30 min	39.4 µM
Cc1cc(-c2ccnc(Nc3cnn(C)c3)n2)ccc1CNC(=O)N1CC(OC(C)C)C1	basophil degranulation, measured: CD63	human whole blood	with: FcεR stimulation	2 µM
glutathione	superoxide radical scavenging		4 min, pH 8.3	< 15000 ng/mL
COc1cnc(NS(=O)(=O)c2ccc(NC(=O)/C=C\c3ccc(OC(C)=O)c(OC(C)=O)c3)cc2)nc1	DPPH radical scavenging	ethanol	30 min	798 µM
NC[C@H]1O[C@H](O[C@H]2[C@H](O)[C@@H](O[C@H]3O[C@H](CO)[C@@H](O)[C@H](N)[C@H]3O)[C@H](N)C[C@@H]2N)[C@H](N)C[C@@H]1O	luciferase reporter translation	Escherichia coli cell lysate		0.0089 ± 0.0019 µM
O=C(O)c1nn(Cc2ccc(Cl)cc2Cl)c2ccccc12	uncoupled glutamate oxidation, inhibitor, oxygen electrode	rat heart mitochondria		~20 µM
O=C1O[C@H]([C@@H](O)CO)C(O)=C1O	DPPH radical scavenging		30 min	124 ± 6.22 µM
CC(=CCc1c(O)cc(C)c(C=O)c1O)CCC1(C)C(C)CCC(=O)C1C (centres unmarked)	succinate-dependent oxygen uptake, inhibitor	rat liver mitochondria	with: succinate 15 mM	3.84 µM
COC(=O)c1c2nc(c(C(F)(F)F)c3ccc([n-]3)c(C(=O)OC)c3nc(c(C(F)(F)F)c4ccc1[n-]4)C=C3)C=C2.[Cl-].[Mn+3]	lipid peroxidation, TBARS	rat brain homogenate	with: iron(II)/ascorbate	0.2 µM
O=C1O[C@H]([C@@H](O)CO)C(O)=C1O	DPPH radical scavenging			16.3 ± 0.21 µM
COc1c(Cl)c(C)c(C=O)c(O)c1C/C=C(C)/C=C/[C@@]1(C)[C@H](C)CCC(=O)[C@@H]1C	succinate-dependent oxygen uptake, inhibitor	rat liver mitochondria	with: succinate 15 mM	0.12 µM
COC1C(O)[C@@H](COP(=O)(O)OP(=O)([S-])OP(=O)(O)OP(=O)(O)OC[C@H]2O[C@@H](n3cnc4c(=O)[nH]c(N)nc43)C(O)C2O)O[C@H]1n1c[n+](C)c2c(O)nc(N)nc21 (mixture of isomers)	cap-dependent translation, inhibitor	rabbit reticulocyte lysate		2.6 ± 0.3 µM
O=C1O[C@H]([C@@H](O)CO)C(O)=C1O	H2O2 scavenging			41 ± 3.1 µM
neomycin	phenylalanine incorporation, poly(U)-directed cell-free translation	Mycolicibacterium smegmatis wild-type 70S ribosomes	60 min, 37 °C	0.4 µM
CC(=O)Oc1ccc(/C=C\C(=O)Nc2ccc(S(=O)(=O)Nc3ncccn3)cc2)cc1OC(C)=O	DPPH radical scavenging	ethanol	30 min	260 µM

Some of these lines once more:
Substance	test	test system	setting	IC50
O=C1O[C@H]([C@@H](O)CO)C(O)=C1O	DPPH radical scavenging		30 min	124 ± 6.22 µM
CC(=CCc1c(O)cc(C)c(C=O)c1O)CCC1(C)C(C)CCC(=O)C1C (centres unmarked)	succinate-dependent oxygen uptake, inhibitor	rat liver mitochondria	with: succinate 15 mM	3.84 µM
COC(=O)c1c2nc(c(C(F)(F)F)c3ccc([n-]3)c(C(=O)OC)c3nc(c(C(F)(F)F)c4ccc1[n-]4)C=C3)C=C2.[Cl-].[Mn+3]	lipid peroxidation, TBARS	rat brain homogenate	with: iron(II)/ascorbate	0.2 µM
